Published values of several laboratories.
Protocols differ between the studies behind these lines. Numbers after ± are the reported error.
Sequence of UniProt Q9Y6E0 (whole entry, looked up): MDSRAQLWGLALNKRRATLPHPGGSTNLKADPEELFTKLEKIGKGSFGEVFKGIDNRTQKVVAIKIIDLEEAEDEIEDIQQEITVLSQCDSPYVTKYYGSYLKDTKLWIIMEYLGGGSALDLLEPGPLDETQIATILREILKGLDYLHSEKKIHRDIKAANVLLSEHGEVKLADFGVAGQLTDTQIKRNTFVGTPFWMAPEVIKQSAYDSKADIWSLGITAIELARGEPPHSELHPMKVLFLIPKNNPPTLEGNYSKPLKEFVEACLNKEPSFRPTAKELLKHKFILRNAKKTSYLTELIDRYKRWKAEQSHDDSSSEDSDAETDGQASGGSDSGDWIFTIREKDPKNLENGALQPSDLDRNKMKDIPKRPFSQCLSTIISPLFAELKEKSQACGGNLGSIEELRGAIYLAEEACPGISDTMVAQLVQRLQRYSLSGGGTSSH

CC(C)OCCOCc1ccc(OCC(O)CN(N=O)C(C)C)cc1 (stereo not drawn)
revertant fold increase (Salmonella typhimurium; Ames test; TA100; 1580 µg/plate, 30 % hamster S9; baseline: solvent control): 2.5 fold

[N-]=[N+]=N[C@]1(CO)O[C@@H](n2ccc(N)nc2=O)[C@@H](F)[C@@H]1O
CC50 (DBT-9; cytotoxicity): > 100 µM

C=CC(=O)Nc1cccc(Cn2ncc3cnc(Nc4cnn(CCOC)c4)nc32)c1
percent of control (VRK2 human; binding, KINOMEscan; 100 nM; lower = stronger binding): 76%

O=C1C2CC3CC1CC(C(=O)N1CCN(c4ccc([N+](=O)[O-])c5ncccc45)CC1)(C3)C2
mean revertant colonies (Salmonella typhimurium; Ames test; TA100; 0.78 µg/well, with S9): 29 colonies/well

O=C(c1ccnc(N2Cc3cn(Cc4ccc(F)cc4)nc3C2)n1)N1CCOCC1
efflux ratio (MDR1-MDCK; baseline: B-A over A-B): 6.7

O=C(Nc1cnccc1-c1ccc([18F])cc1)c1ccnc(NC(=O)C2CC2)c1
mean SUV (ex vivo biodistribution, gamma counting; GSK-3β overexpressing transgenic mouse, late stage, adipose tissue; intravenous, 1.26 MBq/animal, 120 min post-injection): 0.13

O=C1NC2(CC2)COc2ncc(F)cc2[C@H]2COCCN2c2ccn3ncc1c3n2
structural aberrations (CHL; 150 µg/mL, 4 h, without S9): 0.3%

Nc1ncc(-c2cc(-c3cnn(CC(F)(F)F)c3)ncc2F)nc1C(=O)NC1CNCC(F)C1 (stereo not drawn)
remaining binding (SRPK1; KINOMEscan; 1 µM; baseline: DMSO control): 80%

CN(C)C(=O)c1ccnc(N2Cc3cn(Cc4ccc(F)cc4)nc3C2)n1
efflux ratio (MDR1-MDCK; baseline: B-A over A-B): 2.7

Cl.NCc1ccc2c(c1)CN(C1CCC(=O)NC1=O)C2=O (stereo not drawn)
minimum viability (SNU-423; CellTiter-Glo; concentration not given, 72 h): 92.3 ± 4.43%

CN(C)C(=O)c1cccc(N2Cc3cn(Cc4ccc(F)cc4)nc3C2)c1
efflux ratio (MDR1-MDCK; baseline: B-A over A-B): 1.4

CC(=O)N1c2ccc(-c3ccc(CNC(=O)c4cn5cc(-c6cnc(N)nc6)nc(N6CCOCC6)c5n4)cc3)cc2CC[C@@H]1C
cytotoxicity (HS5 stromal cells; concentration not given, 48 h): not toxic

C=C(NC(=O)c1csc(-c2nc3c(cc2O)-c2nc(cs2)C(=O)NC(C(C)O)C(=O)NC(=C(C)OC)c2nc(cs2)C(=O)NC2c4nc(cs4)C(=O)NC(COC(=O)c4c5c6c(cccc6n4O)COC(=O)C(OC4CC(C)(O)C(N(C)C)C(C)O4)C2OC5)c2nc-3cs2)n1)C(N)=O (stereo not drawn)
clearance (cynomolgus monkey, female, plasma; intravenous infusion, 9 mg/kg single dose): 0.223 L/h/kg

COC1CN([C@H]2CC[C@H]([C@@]3(C)Oc4c(Cl)cc(C(=O)NCc5c(SC)cc(C)[nH]c5=O)c(C)c4O3)CC2)C1
log2 fold change (RNA-seq, refers to: EPN2 mouse homolog; mouse, HT-1376 xenograft, whole blood; dose not given; baseline: vehicle): 0.775

CN1CCCNC(=O)c2cccc(c2)C(=O)NCCCN(C)CCCNc2cccc3c2C(=O)c2cccc(c2C3=O)NCCC1
viability (SAS; cell growth or viability, CCK-8; 0.5 µM, 48 h): 66.3%

CCN(CC)CC#CCNc1ccnc2cc(Cl)ccc12
revertants per well (Salmonella typhimurium; mini-Ames test; TA1535; 1000.0 µg/well, without S9): 3

O=C(OC[C@@]1(O)C(=O)C=C[C@H]2[C@@H]1[C@H]1C=C[C@@H]2C(=O)[C@]1(O)COC(=O)c1ccccc1)c1ccccc1
viability (SW480; MTT; range over 50 to 100 µg/mL): 45.1 to 60.2%

CC(C)C[C@@H]1NC(=O)[C@H](CO)NC(=O)[C@H](CC(=O)O)NC(=O)[C@@H]2CCCN2C(=O)[C@H]2CCCN2C(=O)[C@H](C(C)C)NC(=O)[C@H](CC(=O)O)NC(=O)[C@H](CC(N)=O)NC(=O)[C@H](CCCNC(=N)N)NC(=O)[C@H]([C@@H](C)O)NC(=O)[C@H](C(C)C)NC(=O)CCNC(=O)CCNC(=O)[C@H](Cc2ccccc2)NC(=O)[C@H](C(C)C)NC(=O)[C@H](CC(C)C)NC1=O
cytoplasmic peptide amount (HEK293T; subcellular fractionation LC-MS; cytoplasm; 20 µM, 24 h): not detected

CN(C)C(=O)c1cccc(N2Cc3cn(Cc4ccc(F)cc4F)nc3C2)c1
efflux ratio (MDR1-MDCK; baseline: B-A over A-B): 0.7

CC(=O)N[C@H](C(=O)N[C@H](C(=O)N[C@@H](CCCNC(=N)N)C(=O)N[C@@H](CC(N)=O)C(=O)N[C@@H](CC(=O)O)C(=O)N[C@H](C(=O)N1CCC[C@@H]1C(=O)N1CCC[C@H]1C(=O)N[C@@H](CC(=O)O)C(=O)N[C@@H](CO)C(=O)N[C@@H](CC(C)C)C(=O)N[C@@H](CC(C)C)C(=O)N[C@H](C(=O)N[C@@H](Cc1ccccc1)C(N)=O)C(C)C)C(C)C)[C@@H](C)O)C(C)C
cytoplasmic peptide amount (HEK293T; subcellular fractionation LC-MS; cytoplasm; 20 µM, 24 h): not detected

COC(=O)C1=C(C)Oc2ccc(Br)cc2C1C(C(C)=O)C(=O)OC (stereo not drawn)
LDH release (3T3-L1 adipocytes; IC20, 14 days, adipogenic induction; baseline: untreated): ≤ 120%

CC1(C)C(NC(=O)C(=NOC2(C(=O)O)CC2)c2csc(N)n2)C(=O)N1OS(=O)(=O)O (stereo not drawn)
CC50 (SH-SY5Y; cell growth or viability): > 100 µM

CCNc1cc2c(cc1C)C1(c3cc(C)c(NCC)cc3O2)c2ccccc2C(=O)N1N=Cc1c[c-]c(-c2ccccn2)cc1.Cc1c(C)c(-c2ccc(-c3ccccc3)cc2)[c-](C)c1C.[Cl-].[Ir+3]
viable cells (A549; annexin V/PI flow cytometry; 1.0×IC50, 24 h): 61.88 ± 0.2%

Cc1nn(-c2cccc(N)c2)c(=O)c2cnc(Nc3ccc(N4CCNCC4)cc3)nc12
IC50 (STK24 (Homo sapiens, UniProt Q9Y6E0); enzyme activity, inhibitor): 3.11 µM

CN(C)C(=O)c1ccnc(N2Cc3cn(Cc4cc(F)cc(F)c4)nc3C2)n1
efflux ratio (MDR1-MDCK; baseline: B-A over A-B): 2.1

NCCNc1nnnc2c1sc1nc(N3CCOCC3)c3c(c12)CCCC3
percentage of drug-related material (cryopreserved mouse hepatocytes; UHPLC-MS peak area; 1 µM, 20 min): 15.1%

C=CS(=O)(=O)Oc1ccc(OC)c(-c2c[nH]c3ncc(-c4cncc(C(=O)N(C)C)c4)cc23)c1
cytotoxicity (HEK293T; concentration not given): not toxic

A few entries again:
Nc1ncc(-c2cc(-c3cnn(CC(F)(F)F)c3)ncc2F)nc1C(=O)NC1CNCC(F)C1 (stereo not drawn)
remaining binding (SRPK1; KINOMEscan; 1 µM; baseline: DMSO control): 80%

CN(C)C(=O)c1ccnc(N2Cc3cn(Cc4ccc(F)cc4)nc3C2)n1
efflux ratio (MDR1-MDCK; baseline: B-A over A-B): 2.7
